# Results gathered from unrelated publications.
# Protocols differ between the studies behind these lines. ± gives the spread as reported.
# Organism: Escherichia coli
Compound,test,test system,conditions,scale,measurement,value
COc1cc2oc([N+](=O)[O-])cc2c2ccccc12,REMA,,,,MIC90,> 32 µg/mL
CC[C@H](C)[C@H](NC(=O)[C@H](CC(C)C)NC(=O)[C@@H](NC(=O)[C@H](CCCNC(=N)N)NC(=O)[C@H](CCCNC(=N)N)NC(=O)[C@H](CCCNC(=N)N)NC(=O)[C@@H](N)CCCNC(=N)N)[C@@H](C)CC)C(=O)N[C@@H](CCCNC(=N)N)C(=O)N[C@@H](CCCNC(=N)N)C(=O)N[C@H](C(=O)N[C@@H](CC(C)C)C(=O)N[C@@H](CCCNC(=N)N)C(=O)N[C@@H](CC(C)C)C(=O)N[C@@H](CCCNC(=N)N)C(=O)N[C@@H](CO)C(=O)N[C@@H](CO)C(=O)N[C@@H](C)C(=O)N[C@@H](Cc1ccc(O)cc1)C(N)=O)C(C)C,checkerboard,,"unit not given, together with: rifampicin",lower means synergy,FICI,0.16
C[C@H]1[C@H](NC(=O)/C(=N\OC(C)(C)C(=O)O)c2csc(N)n2)C(=O)N1S(=O)(=O)O,,"mcr-1 producing, ICR mice systemic infection",up to 100 mg/kg,,survival rate,100%
CC(C)[C@@H]1NC(=O)CNC(=O)[C@H](CC(N)=O)NC(=O)[C@H](CCCNC(=N)N)NC(=O)[C@H](Cc2ccc(O)cc2)NC(=O)[C@H](C(C)C)NC(=O)[C@@H](NC(=O)[C@@H](NC(=O)[C@H](CC(N)=O)NC(=O)[C@H](Cc2c[nH]c3ccccc23)NC(=O)[C@H](C)NC(=O)[C@H](Cc2ccccc2)NC(=O)CN)C(C)C)CSSC[C@@H](C(=O)N[C@@H](Cc2c[nH]cn2)C(=O)N[C@@H](CCCNC(=N)N)C(=O)N[C@@H](CCCNC(=N)N)C(=O)N[C@@H](C)C(=O)N[C@@H](CC(N)=O)C(N)=O)NC(=O)[C@H](C(C)C)NC(=O)[C@H](CCCNC(=N)N)NC1=O,bactericidal activity,CGMCC 1.9,24 h,,Emax,-4.84 log CFU
CC[C@H](C)[C@H](NC(=O)[C@H](CC(C)C)NC(=O)[C@@H](NC(=O)[C@H](CCCNC(=N)N)NC(=O)[C@H](CCCNC(=N)N)NC(=O)[C@H](CCCNC(=N)N)NC(=O)[C@@H](N)CCCNC(=N)N)[C@@H](C)CC)C(=O)N[C@@H](CCCCN)C(=O)N[C@@H](CCCCN)C(=O)N[C@H](C(=O)N[C@@H](CC(C)C)C(=O)N[C@@H](CCCCN)C(=O)N[C@@H](CC(C)C)C(=O)N[C@@H](CCCCN)C(=O)N[C@@H](CO)C(=O)N[C@@H](CO)C(=O)N[C@@H](C)C(=O)N[C@@H](Cc1ccc(O)cc1)C(N)=O)C(C)C,checkerboard,,"unit not given, together with: azithromycin",lower means synergy,FICI,0.25
COc1ccc(CC2NCCc3cc(OC)c(OC)cc32)cc1OC.Cl (centres unmarked),,,"24 h, 37 °C",,MBC,> 1600 µM
CC[C@H](C)[C@H](NC(=O)[C@H](CC(C)C)NC(=O)[C@H](CCCNC(=N)N)NC(=O)[C@H](CC(C)C)NC(=O)[C@@H](NC(=O)[C@@H](NC(=O)[C@H](CCCNC(=N)N)NC(=O)[C@@H](NC(=O)[C@@H](NC(=O)[C@H](CCCNC(=N)N)NC(=O)[C@H](CCCNC(=N)N)NC(=O)[C@H](CCCNC(=N)N)NC(=O)[C@H](CO)NC(=O)[C@@H](N)CCCNC(=N)N)[C@@H](C)CC)[C@@H](C)CC)[C@@H](C)CC)C(C)C)C(=O)N[C@@H](CCCNC(=N)N)C(=O)N[C@@H](CCCNC(=N)N)C(=O)N[C@@H](CO)C(=O)N[C@@H](C)C(=O)N[C@@H](CCCNC(=N)N)C(N)=O,,,,,MIC range,1 to 2 µM
CC(C)C[C@H](NC(=O)[C@H](CCCCN)NC(=O)OCC1c2ccccc2-c2ccccc21)C(=O)N[C@H](C(=O)N[C@@H](Cc1ccccc1)C(=O)N[C@@H](Cc1ccccc1)C(=O)N[C@@H](CCCCN)C(=O)NCC(=O)N[C@@H](Cc1ccccc1)C(=O)N[C@@H](C)C(=O)N[C@@H](Cc1c[nH]c2ccccc12)C(=O)N[C@@H](CC(N)=O)C(=O)N[C@H](C(=O)N[C@H]1CSSC[C@@H](C(=O)N[C@@H](Cc2c[nH]cn2)C(=O)N[C@@H](CCCNC(=N)N)C(=O)N[C@@H](CCCNC(=N)N)C(=O)N[C@@H](C)C(=O)N[C@@H](CC(N)=O)C(N)=O)NC(=O)[C@H](C(C)C)NC(=O)[C@H](CCCNC(=N)N)NC(=O)[C@H](C(C)C)NC(=O)CNC(=O)[C@H](CC(N)=O)NC(=O)[C@H](CCCNC(=N)N)NC(=O)[C@H](Cc2ccc(O)cc2)NC(=O)[C@H](C(C)C)NC1=O)C(C)C)C(C)C,bactericidal activity,CGMCC 1.9,24 h,,EC50,4.01 µM
CC[C@@H](C)[C@@H](N)C(=O)N[C@@H](C(=O)N[C@H](Cc1ccc(O)cc1)C(=O)N[C@@H](C(=O)N[C@H](CCN)C(=O)N[C@H](CC(C)C)C(=O)N[C@H](CO)C(=O)N[C@H](CCN)C(=O)N[C@@H](C(=O)N[C@H](CCN)C(=O)N[C@H](Cc1c[nH]cn1)C(=O)N[C@H](CCN)C(=O)N[C@H](C)C(=O)N[C@H](CCN)C(=O)N[C@H](CCN)C(N)=O)[C@H](C)CC)[C@H](C)CC)[C@H](C)CC,,"ATCC 25922, Mueller-Hinton broth with 100% human serum",,baseline: MH broth alone,MBC fold increase,2 fold
C[C@@H](O)[C@H]1C(=O)N2C(C(=O)[O-])=C(SC3Cn4cnc[n+]4C3)[C@H](C)[C@H]12 (some centres unmarked),checkerboard,carbapenem-resistant,"concentration not given, together with: anionic gold nanoparticle 8 µg/mL",baseline: MIC alone over combination,MIC fold reduction,4 fold
CNC(C)C1CCC(N)C(OC2C(N)CC(N)C(OC3OCC(C)(O)C(NC)C3O)C2O)O1 (centres unmarked),broth microdilution,,,,MLC,4 ± 1 µg/mL
Nc1c([N+](=O)[O-])oc2ccc3ccccc3c12,REMA,,,,MIC90,> 32 µg/mL
CC[C@H](C)[C@H](NC(=O)CNC(=O)[C@@H](NC(=O)[C@H](Cc1ccccc1)NC(=O)[C@H](Cc1ccc(O)cc1)NC(=O)[C@@H]1CCC(=O)NCC(=O)NCC(=O)N[C@@H](C)C(=O)NCC(=O)N[C@@H](Cc2c[nH]cn2)C(=O)N[C@@H](C(C)C)C(=O)N2CCC[C@H]2C(=O)N1)C(C)C)C(=O)NCC(=O)N[C@H](C(=O)N1CCC[C@H]1C(=O)N[C@H](C(=O)N[C@@H](CO)C(=O)N[C@@H](Cc1ccccc1)C(=O)N[C@@H](Cc1ccc(O)cc1)C(=O)NCC(=O)O)[C@@H](C)CC)[C@@H](C)O,,"ΔtolC, plasmid wild-type rpoC","5 µM, 16 h, 37 °C",baseline: untreated,growth inhibition,100%
O=[N+]([O-])c1cc2cc3ccc4oc([N+](=O)[O-])cc4c3cc2o1,REMA,,,,MIC90,> 32 µg/mL
CC[C@H](C)[C@H](NC(=O)[C@H](CCCNC(=N)N)NC(=O)[C@H](CCCNC(=N)N)NC(=O)[C@H](CCCNC(=N)N)NC(=O)[C@H](CCCNC(=N)N)NC(=O)[C@H](CC(C)C)NC(=O)[C@H](CCCNC(=N)N)NC(=O)[C@H](CO)NC(=O)[C@@H](N)CO)C(=O)N[C@H](C(=O)N[C@@H](CC(C)C)C(=O)N[C@@H](CCCNC(=N)N)C(=O)N[C@@H](CCCNC(=N)N)C(=O)N[C@@H](CCCNC(=N)N)C(=O)N[C@@H](CCCNC(=N)N)C(=O)N[C@@H](Cc1ccccc1)C(=O)N[C@@H](CO)C(=O)N[C@@H](C)C(=O)N[C@@H](Cc1ccc(O)cc1)C(N)=O)C(C)C,checkerboard,,"unit not given, together with: azithromycin",lower means synergy,FICI,0.19
COc1c([N+](=O)[O-])oc2ccc3ccccc3c12,REMA,,,,MIC90,> 32 µg/mL
CC[C@@H](C)[C@@H](N)C(=O)N[C@@H](C(=O)N[C@H](Cc1ccc(O)cc1)C(=O)N[C@@H](C(=O)N[C@H](CCCNC(=N)N)C(=O)N[C@H](CC(C)C)C(=O)N[C@H](CO)C(=O)N[C@H](CCCNC(=N)N)C(=O)N[C@@H](C(=O)N[C@H](CCCNC(=N)N)C(=O)N[C@H](Cc1c[nH]cn1)C(=O)N[C@H](CCCNC(=N)N)C(=O)N[C@H](C)C(=O)N[C@H](CCCNC(=N)N)C(=O)N[C@H](CCCNC(=N)N)C(N)=O)[C@H](C)CC)[C@H](C)CC)[C@H](C)CC,,"ATCC 25922, Mueller-Hinton broth","20 h, 37 °C",,MBC,8 µg/mL
Cc1c([N+](=O)[O-])oc2ccc3ccccc3c12,REMA,,,,MIC90,2 µg/mL
CCn1cc(C(=O)O)c(=O)c2cc(F)c(N3CCNCC3)cc21,,ATCC 25922,,,generations to resistance,17 generations
N=C(N)c1ccc(OCCCCCOc2ccc(C(=N)N)cc2)cc1,checkerboard,BW25113 mcr-1 plasmid,"unit not given, together with: rifampicin",lower = stronger synergy,FICI,≤ 0.25
CC1(C)S[C@@H]2[C@H](NC(=O)C(C(=O)O)c3ccccc3)C(=O)N2[C@H]1C(=O)O (some centres unmarked),,ΔtolC JW5503-1,"200 µM, together with: 30 µg/mL 2,2'-bipyridyl",,zone of inhibition,17 mm
Cn1c(=O)ccc2ccc(F)c(CCNC[C@H]3CN(c4cnc5c(n4)NC(=O)CO5)C(=O)O3)c21,,,,,MIC50,0.12 µg/mL
CC(C)C[C@H](NC(=O)[C@H](CCN)NC(=O)[C@H](CCN)NC(=O)[C@@H](Cc1ccccc1)NC(=O)[C@H](CC(C)C)NC(=O)[C@H](CCN)NC(=O)[C@H](CCN)NC(=O)[C@@H](CCN)NC(=O)CCSCCOC(=O)c1ccc(C(C)(C)C)cc1)C(N)=O,,ATCC 10546,"24 h, 37 °C",,MBC,8 µM
C[C@@H](O)[C@H]1C(=O)N2C(C(=O)O)=C(S[C@@H]3CN[C@H](C(=O)N(C)C)C3)[C@H](C)[C@H]12,,DH5a clone with KPC-136,,baseline: empty vector strain,MIC fold increase,> 16 fold
CC[C@H](C)[C@H](NC(=O)[C@H](Cc1ccc(O)cc1)NC(=O)[C@@H](NC(=O)[C@H](Cc1ccc(O)cc1)NC(=O)[C@@H]1CCCN1C(=O)[C@@H](NC(=O)[C@H](C)N)[C@@H](C)CC)[C@@H](C)CC)C(=O)N[C@@H](Cc1c[nH]c2ccccc12)C(=O)N[C@@H](CCCNC(=N)N)C(=O)N[C@@H](CC(C)C)C(=O)N[C@@H](CC(C)C)C(=O)N[C@@H](CCCNC(=N)N)C(=O)N[C@@H](CCCCN)C(=O)NCC(=O)O,,D31,"18 h, 37 °C",,MBC,3.75 µM
CC(C)[C@@H]1NC(=O)[C@H](C)OC(=O)[C@@H](C(C)C)NC(=O)[C@@H](C(C)C)OC(=O)[C@H](C(C)C)NC(=O)[C@H](C)OC(=O)[C@@H](C(C)C)NC(=O)[C@@H](C(C)C)OC(=O)[C@H](C(C)C)NC(=O)[C@H](C)OC(=O)[C@@H](C(C)C)NC(=O)[C@@H](C(C)C)OC1=O,checkerboard,tetracycline-resistant,"20 µM, together with: tetracycline",,FIC index,1

# Excerpt of the above:
Compound,test,test system,conditions,scale,measurement,value
CC(C)C[C@H](NC(=O)[C@H](CCCCN)NC(=O)OCC1c2ccccc2-c2ccccc21)C(=O)N[C@H](C(=O)N[C@@H](Cc1ccccc1)C(=O)N[C@@H](Cc1ccccc1)C(=O)N[C@@H](CCCCN)C(=O)NCC(=O)N[C@@H](Cc1ccccc1)C(=O)N[C@@H](C)C(=O)N[C@@H](Cc1c[nH]c2ccccc12)C(=O)N[C@@H](CC(N)=O)C(=O)N[C@H](C(=O)N[C@H]1CSSC[C@@H](C(=O)N[C@@H](Cc2c[nH]cn2)C(=O)N[C@@H](CCCNC(=N)N)C(=O)N[C@@H](CCCNC(=N)N)C(=O)N[C@@H](C)C(=O)N[C@@H](CC(N)=O)C(N)=O)NC(=O)[C@H](C(C)C)NC(=O)[C@H](CCCNC(=N)N)NC(=O)[C@H](C(C)C)NC(=O)CNC(=O)[C@H](CC(N)=O)NC(=O)[C@H](CCCNC(=N)N)NC(=O)[C@H](Cc2ccc(O)cc2)NC(=O)[C@H](C(C)C)NC1=O)C(C)C)C(C)C,bactericidal activity,CGMCC 1.9,24 h,,EC50,4.01 µM
COc1ccc(CC2NCCc3cc(OC)c(OC)cc32)cc1OC.Cl (centres unmarked),,,"24 h, 37 °C",,MBC,> 1600 µM
CC1(C)S[C@@H]2[C@H](NC(=O)C(C(=O)O)c3ccccc3)C(=O)N2[C@H]1C(=O)O (some centres unmarked),,ΔtolC JW5503-1,"200 µM, together with: 30 µg/mL 2,2'-bipyridyl",,zone of inhibition,17 mm
COc1cc2oc([N+](=O)[O-])cc2c2ccccc12,REMA,,,,MIC90,> 32 µg/mL
